# Assay results from different studies.
# Every numbered part comes from another study and shows a few of its results, in no order.
# UniProt Q9XID4, sequence (whole entry, looked up): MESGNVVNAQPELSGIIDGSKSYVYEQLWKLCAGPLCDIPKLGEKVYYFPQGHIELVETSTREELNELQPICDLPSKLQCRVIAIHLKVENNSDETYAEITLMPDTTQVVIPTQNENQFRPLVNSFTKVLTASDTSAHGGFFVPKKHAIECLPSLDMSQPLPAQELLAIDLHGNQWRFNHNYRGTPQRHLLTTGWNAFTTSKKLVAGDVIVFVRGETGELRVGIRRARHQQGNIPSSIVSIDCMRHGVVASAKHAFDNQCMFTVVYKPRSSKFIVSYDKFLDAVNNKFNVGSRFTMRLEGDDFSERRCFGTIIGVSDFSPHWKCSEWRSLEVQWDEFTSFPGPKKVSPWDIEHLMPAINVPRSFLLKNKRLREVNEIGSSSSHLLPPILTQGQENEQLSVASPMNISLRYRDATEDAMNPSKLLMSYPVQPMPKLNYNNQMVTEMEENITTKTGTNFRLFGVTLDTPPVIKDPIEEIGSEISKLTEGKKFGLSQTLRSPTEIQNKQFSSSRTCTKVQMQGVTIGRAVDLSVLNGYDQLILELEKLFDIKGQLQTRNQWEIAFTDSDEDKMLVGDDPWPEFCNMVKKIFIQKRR
# UniProt P16234, sequence (whole entry, looked up): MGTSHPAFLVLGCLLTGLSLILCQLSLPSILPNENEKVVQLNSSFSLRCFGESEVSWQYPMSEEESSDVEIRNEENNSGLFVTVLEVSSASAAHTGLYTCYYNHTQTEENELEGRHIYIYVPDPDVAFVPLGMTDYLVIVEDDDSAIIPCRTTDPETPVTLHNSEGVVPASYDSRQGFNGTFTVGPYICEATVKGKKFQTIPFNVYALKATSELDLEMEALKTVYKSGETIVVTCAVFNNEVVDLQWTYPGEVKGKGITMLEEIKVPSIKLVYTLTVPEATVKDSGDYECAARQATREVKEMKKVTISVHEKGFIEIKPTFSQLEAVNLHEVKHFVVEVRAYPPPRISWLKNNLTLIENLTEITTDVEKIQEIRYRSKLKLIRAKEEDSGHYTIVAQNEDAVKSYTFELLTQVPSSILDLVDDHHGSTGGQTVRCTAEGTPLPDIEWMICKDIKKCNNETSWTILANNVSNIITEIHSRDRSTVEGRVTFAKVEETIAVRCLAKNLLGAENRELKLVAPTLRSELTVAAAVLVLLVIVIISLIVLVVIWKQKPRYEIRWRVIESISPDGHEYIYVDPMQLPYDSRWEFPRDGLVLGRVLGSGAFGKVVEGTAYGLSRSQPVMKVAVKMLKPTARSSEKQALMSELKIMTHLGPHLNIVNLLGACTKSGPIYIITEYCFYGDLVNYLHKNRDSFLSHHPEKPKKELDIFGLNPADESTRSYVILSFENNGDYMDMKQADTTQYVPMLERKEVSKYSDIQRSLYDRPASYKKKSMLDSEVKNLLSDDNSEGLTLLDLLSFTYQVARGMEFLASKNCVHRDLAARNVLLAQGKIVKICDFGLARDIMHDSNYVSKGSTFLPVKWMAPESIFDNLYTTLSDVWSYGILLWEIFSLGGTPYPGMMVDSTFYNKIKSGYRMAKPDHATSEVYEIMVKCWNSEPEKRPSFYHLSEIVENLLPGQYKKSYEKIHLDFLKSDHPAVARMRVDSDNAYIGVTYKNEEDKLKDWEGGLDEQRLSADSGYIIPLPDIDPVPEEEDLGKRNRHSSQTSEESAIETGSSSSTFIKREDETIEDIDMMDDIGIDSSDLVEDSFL
# UniProt Q9FX25, sequence (whole entry, looked up): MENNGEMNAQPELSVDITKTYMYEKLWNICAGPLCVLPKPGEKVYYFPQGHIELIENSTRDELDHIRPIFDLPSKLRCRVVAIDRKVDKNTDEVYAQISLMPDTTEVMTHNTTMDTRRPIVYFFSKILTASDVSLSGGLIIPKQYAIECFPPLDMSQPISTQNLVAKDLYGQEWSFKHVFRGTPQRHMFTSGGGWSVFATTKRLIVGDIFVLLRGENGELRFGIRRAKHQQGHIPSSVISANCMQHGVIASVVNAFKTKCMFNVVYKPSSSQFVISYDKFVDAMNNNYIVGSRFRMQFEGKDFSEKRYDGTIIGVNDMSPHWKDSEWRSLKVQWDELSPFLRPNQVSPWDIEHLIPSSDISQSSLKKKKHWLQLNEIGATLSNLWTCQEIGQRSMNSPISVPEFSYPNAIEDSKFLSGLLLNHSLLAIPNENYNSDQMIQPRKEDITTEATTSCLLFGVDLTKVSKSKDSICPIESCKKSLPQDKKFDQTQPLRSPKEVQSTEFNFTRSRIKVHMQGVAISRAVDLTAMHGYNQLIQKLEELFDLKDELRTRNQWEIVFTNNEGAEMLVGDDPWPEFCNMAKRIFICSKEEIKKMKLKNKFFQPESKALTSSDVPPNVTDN
# UniProt Q9ZPY6, sequence (whole entry, looked up): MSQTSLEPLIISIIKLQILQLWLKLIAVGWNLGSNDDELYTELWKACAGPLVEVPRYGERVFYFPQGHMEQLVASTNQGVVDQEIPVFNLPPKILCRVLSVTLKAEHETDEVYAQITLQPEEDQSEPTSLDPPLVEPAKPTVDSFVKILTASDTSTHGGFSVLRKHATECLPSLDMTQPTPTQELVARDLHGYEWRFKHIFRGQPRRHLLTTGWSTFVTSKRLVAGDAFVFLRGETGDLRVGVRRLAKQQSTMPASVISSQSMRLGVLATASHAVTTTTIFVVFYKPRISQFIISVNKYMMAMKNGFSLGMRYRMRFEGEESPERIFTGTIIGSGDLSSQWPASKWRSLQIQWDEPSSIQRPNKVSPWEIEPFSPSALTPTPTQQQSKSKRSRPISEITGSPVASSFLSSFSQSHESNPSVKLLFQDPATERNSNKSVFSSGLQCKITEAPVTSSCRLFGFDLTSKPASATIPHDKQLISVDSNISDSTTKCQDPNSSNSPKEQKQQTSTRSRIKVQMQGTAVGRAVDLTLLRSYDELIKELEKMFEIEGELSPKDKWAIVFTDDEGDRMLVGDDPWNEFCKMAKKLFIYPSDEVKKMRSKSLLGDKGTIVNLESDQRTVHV
# UniProt Q9C7I9, sequence (whole entry, looked up): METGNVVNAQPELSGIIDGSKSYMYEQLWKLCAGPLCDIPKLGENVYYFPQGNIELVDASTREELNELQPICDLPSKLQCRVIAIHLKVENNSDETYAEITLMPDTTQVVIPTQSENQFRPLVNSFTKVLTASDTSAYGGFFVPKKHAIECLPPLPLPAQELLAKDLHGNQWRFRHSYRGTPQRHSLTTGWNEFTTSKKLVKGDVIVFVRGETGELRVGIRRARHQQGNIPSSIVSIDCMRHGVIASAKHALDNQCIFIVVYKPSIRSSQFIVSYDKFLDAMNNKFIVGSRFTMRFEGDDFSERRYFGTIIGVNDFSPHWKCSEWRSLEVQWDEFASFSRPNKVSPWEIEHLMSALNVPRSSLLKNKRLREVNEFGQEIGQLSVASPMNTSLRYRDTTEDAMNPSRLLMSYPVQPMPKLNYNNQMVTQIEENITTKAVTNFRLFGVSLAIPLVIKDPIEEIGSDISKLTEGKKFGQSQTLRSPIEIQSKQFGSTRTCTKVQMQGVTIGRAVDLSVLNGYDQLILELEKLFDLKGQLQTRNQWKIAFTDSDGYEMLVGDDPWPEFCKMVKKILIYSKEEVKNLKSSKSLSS
# UniProt Q84WU6, sequence (whole entry, looked up): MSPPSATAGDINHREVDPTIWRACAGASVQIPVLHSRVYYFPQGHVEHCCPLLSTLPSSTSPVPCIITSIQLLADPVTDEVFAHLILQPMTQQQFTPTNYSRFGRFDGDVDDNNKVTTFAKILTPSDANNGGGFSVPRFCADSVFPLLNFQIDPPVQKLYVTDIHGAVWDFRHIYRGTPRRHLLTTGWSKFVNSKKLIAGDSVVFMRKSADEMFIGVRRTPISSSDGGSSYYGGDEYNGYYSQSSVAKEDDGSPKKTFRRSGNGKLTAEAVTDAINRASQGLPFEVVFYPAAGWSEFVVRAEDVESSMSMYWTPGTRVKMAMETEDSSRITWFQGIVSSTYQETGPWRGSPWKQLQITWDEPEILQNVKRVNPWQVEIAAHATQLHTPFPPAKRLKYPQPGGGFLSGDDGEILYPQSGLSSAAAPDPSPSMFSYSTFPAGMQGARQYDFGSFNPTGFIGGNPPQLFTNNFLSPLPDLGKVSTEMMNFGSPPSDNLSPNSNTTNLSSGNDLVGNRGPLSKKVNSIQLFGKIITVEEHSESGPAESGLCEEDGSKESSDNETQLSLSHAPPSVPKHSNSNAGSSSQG
# UniProt Q9M1R4, sequence (whole entry, looked up): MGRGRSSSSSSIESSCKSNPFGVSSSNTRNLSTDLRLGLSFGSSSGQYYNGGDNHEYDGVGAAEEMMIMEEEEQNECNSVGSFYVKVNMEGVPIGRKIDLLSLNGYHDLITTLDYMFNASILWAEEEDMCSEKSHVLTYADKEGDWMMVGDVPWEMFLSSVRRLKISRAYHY
# UniProt Q8H174, sequence (whole entry, looked up): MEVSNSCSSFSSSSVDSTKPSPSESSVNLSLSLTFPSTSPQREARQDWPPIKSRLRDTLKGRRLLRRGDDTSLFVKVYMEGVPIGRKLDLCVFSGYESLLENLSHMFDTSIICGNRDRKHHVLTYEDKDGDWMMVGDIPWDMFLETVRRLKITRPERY

# Study 1
# Target: PABPC1L2, full length, GST fusion (mouse, UniProt A0ABA7IW68)
# Method: RNAcompete
# Molecule type: RNA
# Medium: in vitro
# Tested at: 20 nM
# Setting: 7-mer, probes averaged, single round
# Baseline: mean of 7-mers
# Direction: higher = stronger binding
# Target sequence (chain): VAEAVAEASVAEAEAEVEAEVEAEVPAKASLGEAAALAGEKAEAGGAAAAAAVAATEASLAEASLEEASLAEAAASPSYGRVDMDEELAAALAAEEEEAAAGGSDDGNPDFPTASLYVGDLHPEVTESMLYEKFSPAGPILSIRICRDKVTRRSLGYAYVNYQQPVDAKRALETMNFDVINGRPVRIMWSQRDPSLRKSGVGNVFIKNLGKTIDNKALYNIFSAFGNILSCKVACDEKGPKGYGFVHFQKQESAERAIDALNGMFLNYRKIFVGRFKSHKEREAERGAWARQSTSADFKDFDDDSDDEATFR
Sequence,7-mer Z-score
UAGACUC,-0.302
GGUUUGG,-0.28
UGCUCUA,-0.217
ACUCGGC,-0.162
UGGACAU,-0.0863
UCAUAUA,-0.0935
UCGUGCA,-0.322
GCCCUUC,-0.36

# Study 2
# Target: TAR DNA-binding protein 43, full length, His tag (TARDBP, Homo sapiens, UniProt Q13148, residues 1-414)
# Method: RNA Bind-n-Seq
# Molecule type: RNA
# Medium: in vitro
# Tested at: 20 nM
# Setting: 6-mer, flanks averaged, single round
# Added: 150 mM LiCl
# Baseline: input library
# Direction: higher = stronger binding
Sequence,6-mer enrichment (R)
CAUUAC,0.882
UACACU,0.862
GGUGAU,1.15
AAGUGA,0.953
AUGGGC,1.05
UUGUCA,0.944
CUGGUA,0.942
GAACCU,0.875

# Study 3
# Molecule: IAA8 (Arabidopsis thaliana, UniProt Q38826)
# UniProt Q38826, sequence (whole entry, looked up): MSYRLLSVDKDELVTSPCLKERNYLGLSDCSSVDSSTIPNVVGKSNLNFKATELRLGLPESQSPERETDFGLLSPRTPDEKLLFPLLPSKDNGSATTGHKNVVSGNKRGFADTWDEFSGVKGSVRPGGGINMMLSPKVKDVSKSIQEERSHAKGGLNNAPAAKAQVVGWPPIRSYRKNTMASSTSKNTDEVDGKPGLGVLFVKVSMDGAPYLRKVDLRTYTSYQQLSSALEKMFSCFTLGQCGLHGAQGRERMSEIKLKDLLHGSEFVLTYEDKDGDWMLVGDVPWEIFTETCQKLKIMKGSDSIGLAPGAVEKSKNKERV
# Method: two-hybrid
# Direction: higher = firmer interaction
partner,setting,baseline,positive tests
"ARF4 660-788 (Arabidopsis thaliana, UniProt Q9ZTX9)",,out of 4 tests,0
"IAA30 (Arabidopsis thaliana, UniProt Q9M1R4)",weak activation fusion,out of 2 tests,1
"IAA31 (Arabidopsis thaliana, UniProt Q8H174)",,out of 4 tests,2
"ARF17 (Arabidopsis thaliana, UniProt Q84WU6)",weak activation fusion,out of 4 tests,0
"ARF13 (Arabidopsis thaliana, UniProt Q9FX25)",,out of 4 tests,0
"ARF12 500-593 (Arabidopsis thaliana, UniProt Q9XID4)",,out of 4 tests,1
"ARF20 484-590 (Arabidopsis thaliana, UniProt Q9C7I9)",,out of 4 tests,0
"ARF11 500-622 (Arabidopsis thaliana, UniProt Q9ZPY6)",,out of 2 tests,0

# Further values, each from its own experiment
Structure (SMILES),target,observed,mode,tested at,baseline,measurement,result
Cc1nc(-c2ccccc2)c(-c2ccncc2)o1,"Platelet-derived growth factor receptor alpha (PDGFRA, Homo sapiens, UniProt P16234)",enzyme activity,inhibitor,0.5 µM,control,remaining activity,96.3%

# Repeated from above (further values, each from its own experiment):
Structure (SMILES),target,observed,mode,tested at,baseline,measurement,result
Cc1nc(-c2ccccc2)c(-c2ccncc2)o1,"Platelet-derived growth factor receptor alpha (PDGFRA, Homo sapiens, UniProt P16234)",enzyme activity,inhibitor,0.5 µM,control,remaining activity,96.3%
